Results of several laboratories.
Every numbered part comes from another study and shows a few of its results, in no order. Positions count from the first letter of the parent shown.

Series 1
Target: Sal-like protein 4, full length isoform B (SALL4, Homo sapiens, UniProt Q9UJQ4-2, residues 1-616)
Method: universal PBM
Form: double-stranded DNA, one strand shown
Medium: in vitro
Tested at: not given
Notes: 8-mer, flanks averaged, mean of replicates
Reading: higher = stronger binding
Strand	E-score
ATGCTATA	0.242
CCCTGCCG	-0.335
AACCCCTG	-0.274
AATGCACT	0.192
ATTCAAGA	0.222
GCCCCTTA	-0.146
GAATCGAC	-0.134
CCAAGGAC	-0.125
ATTATTGA	0.428
GGCTAGTA	0.0599
CATTCTGA	0.0472
AGCCGCTA	-0.217
ATCGTGCC	-0.0541
AGCTCCCC	-0.288
CGAAGCTC	-0.356
GGCACAAC	-0.161
AGGCAGGA	-0.0322
CCCATCCG	-0.159
TCTGTGAA	0.117
GCTCATAA	0.157
CAAGGTCC	-0.235
GCCACATA	0.0231

Series 2
Target: Interferon regulatory factor 5, full length, phosphomimetic (IRF5, Homo sapiens, UniProt Q13568-2, residues 1-514, S451D/S453D/S456D/S462D)
Method: protein-binding microarray
Form: double-stranded DNA, one strand shown
Medium: in vitro
Tested at: 940 nM top
Notes: 60-bp whole probe
With: salmon DNA 0.4 mg/ml
Baseline: random background probes
Reading: higher = stronger binding
Shared flanks, not repeated: GCCTAGCAC … GTCTTGATTCGCTTGACGCTGCTG
Strand	fitted relative affinity
GACGATTTCAGTCTCGAAACGTGCTAG	2.19 z-score
TGCCCCCACACTCCTAGCACGTGCTAG	0.886 z-score
TTTGGCTTTCCTTTATGTCCGTGCTAG	0.846 z-score
CTAGGACTGCTACTGCTTTAGTGCTAG	-0.485 z-score
GACGATTTCAGTTCCGAGTCGTGCTAG	1.85 z-score
TCAGTTTTACAGGTTCTCACTGTGCTA	0.562 z-score
GACGGTTTCGGGACTGGAGACGTGCTA	6.31 z-score
GACGGTCTCGGCATCGGGACGTGCTAG	0.971 z-score
TTTTTGTTGTTTTTTGGTTTGTGCTAG	1.85 z-score
AAGTGTTTGGTGTCTTTTGTGGTGCTA	0.635 z-score
GACGGTTTCCGACTGCTGACGTGCTAG	0.542 z-score
TTGGGTATCCTTCTCCTTTAGTGCTAG	0.724 z-score
GACGATGTCGGGTTTCGAGACGTGCTA	1.63 z-score
AGATGAAAAGTGAAGCCTAGGTGCTAG	-0.803 z-score
CCTCCTCTAACTTTCCAATTGTGCTAG	1.34 z-score
TTAGGTATCGGTCACGGTTAGTGCTAG	9.78 z-score

Series 3
Target: Ras GTPase-activating protein-binding protein 1, RRM domain (G3BP1, Homo sapiens, UniProt Q13283)
UniProt Q13283, sequence (whole entry, looked up): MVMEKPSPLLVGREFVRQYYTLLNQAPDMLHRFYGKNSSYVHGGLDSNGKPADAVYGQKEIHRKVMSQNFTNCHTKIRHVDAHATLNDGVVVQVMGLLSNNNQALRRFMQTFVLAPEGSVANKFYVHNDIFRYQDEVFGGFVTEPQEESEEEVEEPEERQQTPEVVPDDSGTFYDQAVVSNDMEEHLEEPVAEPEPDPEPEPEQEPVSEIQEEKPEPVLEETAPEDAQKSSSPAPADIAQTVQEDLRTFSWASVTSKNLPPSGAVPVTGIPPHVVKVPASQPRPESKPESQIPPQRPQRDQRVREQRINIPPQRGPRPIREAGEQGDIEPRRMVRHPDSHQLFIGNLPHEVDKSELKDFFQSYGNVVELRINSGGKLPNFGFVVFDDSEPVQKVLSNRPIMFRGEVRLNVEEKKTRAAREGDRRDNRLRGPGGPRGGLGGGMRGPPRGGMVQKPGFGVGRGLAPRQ
Method: RNA Bind-n-Seq
Form: RNA
Medium: in vitro
Tested at: 1 µM
Notes: whole 134-nt RNA, ends assumed
With: 150 mM KCl
Baseline: input library
Reading: higher = stronger binding
Shared flanks, not repeated: GGGAGUUCUACAGUCCGACGAUC … UGGAAUUCUCGGGUGUCAAGG
Strand	log2 enrichment
CACAGACAACACGCACCCACACAGACACAGAGGGAAGGGGUUGGGAUGGGGACAGGGUGCACAGCAGGGCGGGGUAGGACACCAGCCCCU	-0.466
UCCUGUGCUACACAUCGUAUGUACCGAAUCGGGGUGGGGAAAAAGGGGAAAAAAAGGGGAAAGUAUUAUGUUACGCCGUUCGGAUCUGCA	0.597
UGGCCCUGGUGGCAUGCCGGGAGGAAGAGGUGGCCUCAUGGAUCGUGGUGGUCCCGGUGGAAUGUUCAGAGGUGGCCGUGGUGGAGACAG	0.84
CUGUGCUACACAUCGUAUGUACCGAAUCGGGGCCCCCCCGGCCCCCCCGGGGCCCCCCCGGAAAGUAUUAUGUUACGCCGUUCGGAUCUG	-0.582
UGGAUAUGGUUAUAGAAGAAGUGGCCGAGAUAAAUAUGGCCCUCCUACUCGCACAGAGUACAGACUUAUUGUGGAGAAUUUGUCAAGUCG	-0.0535
UCCUCAAGUCCUGUGCUACACAUCGUAUGUACCGAAUCGGGCGGGCGGCGGGAAAGUAUUAUGUUACGCCGUUCGGAUCUGCACUUCCAG	-0.119
AGUCCUGUGCUACACAUCGUAUGUACCGAAUCGGGAAAAAAAGGGUUUGGGAAAGGGAAAGUAUUAUGUUACGCCGUUCGGAUCUGCACU	0.399
CAAGUCCUGUGCUACACAUCGUAUGUACCGAAUCGGGGUUUGGGUUUGGGUUUGGGAAAGUAUUAUGUUACGCCGUUCGGAUCUGCACUU	0.766
CAAGUCCUGUGCUACACAUCGUAUGUACCGAAUCGGUUUUGGUUUUGGUUUUGGGAAAGUAUUAUGUUACGCCGUUCGGAUCUGCACUUC	-0.283
CUGUGCUACACAUCGUAUGUACCGAAUCGGGGUUUGGGGUUUUUUUGGGGAAAAAAAGGGGAAAGUAUUAUGUUACGCCGUUCGGAUCUG	1.03
AGUCCUGUGCUACACAUCGUAUGUACCGAAUCAAAUUUUUAAAUUUAAAUUUUUAAAAAAGUAUUAUGUUACGCCGUUCGGAUCUGCACU	-0.717
CAAGUCCUGUGCUACACAUCGUAUGUACCGAAUCGGUUUGGGGUUUGGGUUUGGGGAAAGUAUUAUGUUACGCCGUUCGGAUCUGCACUU	-0.404
UGGCCCUGGUGGCAUGCGGGGAGGAAGAGGUGGCCUCAUGGAUCGUGGUGGUCCCGGUGGAAUGUUCUGAGGUGGCCGUGGUGGAGACAG	2.21
UUUAAACUGAAGCCGCGGCCGAAAACGCCAAGAGAUUGAUGCUGUAGCUGCCCUGAGAUAACCAGGACUGUGGAAUCGGGAAGAGCUCAU	0.0684

Series 4
Target: PABPC1L2, full length, GST fusion (mouse, UniProt A0ABA7IW68)
Method: RNAcompete
Form: RNA
Medium: in vitro
Tested at: 20 nM
Notes: 7-mer, probes averaged, single round
Baseline: mean of 7-mers
Reading: higher = stronger binding
Target sequence (chain): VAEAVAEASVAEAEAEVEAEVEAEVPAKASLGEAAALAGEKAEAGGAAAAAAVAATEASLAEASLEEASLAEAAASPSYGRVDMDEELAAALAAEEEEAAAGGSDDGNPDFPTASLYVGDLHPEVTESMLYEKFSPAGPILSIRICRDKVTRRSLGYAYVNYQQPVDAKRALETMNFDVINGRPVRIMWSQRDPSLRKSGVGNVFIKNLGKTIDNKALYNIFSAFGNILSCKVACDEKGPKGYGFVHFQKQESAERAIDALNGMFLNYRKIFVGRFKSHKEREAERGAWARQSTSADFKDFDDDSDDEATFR
Strand	7-mer Z-score
UGCACAU	-0.284
GGGGUGU	0.0859
GCCGCGC	-0.354
GUGCGGC	0.00798
ACUCACG	-0.0428
GACUGUA	-0.0826
CUAAUUG	-0.269
UGCAAGG	0.153
UACUGAG	-0.126
AGGAGCG	0.251
GUGAGCC	-0.331
CCGCCGU	-0.456
ACCGUGU	-0.202
GCGGAGA	0.363
UCUCCGU	-0.369
AUGUGUG	-0.184
GAUGACU	-0.26
CUGGGCU	-0.151
AAGGUAA	0.276
GAGGGUA	0.0968
CUAUGAU	-0.208
GCGCCGU	-0.349
ACGAUUG	-0.05
AUGCACA	-0.184
GGUGCAU	0.12

Series 5
Target: CCNA2, cyclin fold, Cln2 fusion (human)
Method: yeast growth competition, sequencing
Medium: yeast
Notes: strong parent motif
Baseline: not given
Reading: higher = stronger binding
Starting sequence: E2F3 docking peptide (human); PPAKRRLELGESG; partner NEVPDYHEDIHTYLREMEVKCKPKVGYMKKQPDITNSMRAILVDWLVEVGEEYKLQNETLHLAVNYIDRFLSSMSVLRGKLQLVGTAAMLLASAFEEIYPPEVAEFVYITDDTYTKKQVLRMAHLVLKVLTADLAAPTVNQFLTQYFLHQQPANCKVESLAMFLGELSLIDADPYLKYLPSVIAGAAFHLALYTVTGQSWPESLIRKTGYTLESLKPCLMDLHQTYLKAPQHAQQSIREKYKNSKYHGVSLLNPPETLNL
Change	normalised enrichment score
PPAKRRLELGASG [E11A]	4.92
PPAARRLELGESG [K4A]	2.66
PPAKRRLELAESG [G10A]	3.7
PPAKRALELGESG [R6A]	1.27
PPAKRRAELGESG [L7A]	0.459
PPAKRRLEFGESG [L9F]	6.14
PAAKRRLELGESG [P2A]	5.1

Series 6
Target: Histone acetyltransferase KAT6A, both winged helices, GST fusion (KAT6A, Homo sapiens, UniProt Q92794, residues 1-181)
Method: protein binding microarray
Form: double-stranded DNA, one strand shown
Medium: in vitro
Tested at: not given
Notes: 8-mer, flanks averaged, mean of 2 arrays, mostly near background
Baseline: not given
Reading: higher = stronger binding
Construct (chain): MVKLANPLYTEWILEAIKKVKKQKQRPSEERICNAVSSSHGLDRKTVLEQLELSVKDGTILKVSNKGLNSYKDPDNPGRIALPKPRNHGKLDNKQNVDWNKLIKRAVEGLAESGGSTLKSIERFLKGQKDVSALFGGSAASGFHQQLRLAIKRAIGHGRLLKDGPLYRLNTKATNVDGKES
Strand	E-score
AGTTGTAT	-0.0769
CACAGCCA	-0.111
ATTTCGAC	0.055
CCAATTTC	-0.159
CTTTCATA	-0.0276
AGACAAGG	-0.0247
GGGACATA	-0.0583
CCAGTGCG	0.0879
AGCGGCTC	0.257
CAACGGAA	0.242
AGTCCAAT	-0.135
AAAGGCTT	-0.233
ACCCCACC	-0.0202
ATCACCAG	-0.0599
CTGCGTTC	0.0306
AGTAACAG	-0.0856
ACAGCTTG	-0.0605
AAATAGGT	-0.232
ATTGTGCC	-0.0842
AGCCATGC	-0.106
AAATGCGC	0.296
ACCTTACT	-0.218
AAAGGCTA	-0.223
ACGAGGAC	-0.0377
GAGCAGGA	-0.098

Series 7
Target: NFE2L1, bZIP domain (human)
Method: DHFR protein complementation
Medium: yeast
Notes: single substitutions, most at no-binding floor
Baseline: wild-type JUN-FOS pair
Reading: higher = stronger binding
Starting sequence: JUN, bZIP domain (human); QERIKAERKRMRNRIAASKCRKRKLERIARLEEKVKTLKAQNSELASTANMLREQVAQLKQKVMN; partner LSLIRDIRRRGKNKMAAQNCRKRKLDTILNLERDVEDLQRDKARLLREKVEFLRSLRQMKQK
Change	binding fitness [natural log]
S47V	-1.21
I28P	-1.51
K34S	-1.39
L31E	-1.52
S47T	-1.43
T48W	-1.36
Q55P	-1.47
M51G	-1.49
S47F	-1.34
A29I	-1.32
S47W	-1.55
K36I	-1.55
L45T	-1.53
L52M	-1.51
T48L	-1.33
M51D	-1.39
E44S	-1.52
L52R	-1.53
K39Q	-1.54
E33R	-1.43
K39N	-1.39
